Published values pooled from the literature.
Compare with care: the assays were run in different laboratories.
UniProt P07948, sequence (whole entry, looked up): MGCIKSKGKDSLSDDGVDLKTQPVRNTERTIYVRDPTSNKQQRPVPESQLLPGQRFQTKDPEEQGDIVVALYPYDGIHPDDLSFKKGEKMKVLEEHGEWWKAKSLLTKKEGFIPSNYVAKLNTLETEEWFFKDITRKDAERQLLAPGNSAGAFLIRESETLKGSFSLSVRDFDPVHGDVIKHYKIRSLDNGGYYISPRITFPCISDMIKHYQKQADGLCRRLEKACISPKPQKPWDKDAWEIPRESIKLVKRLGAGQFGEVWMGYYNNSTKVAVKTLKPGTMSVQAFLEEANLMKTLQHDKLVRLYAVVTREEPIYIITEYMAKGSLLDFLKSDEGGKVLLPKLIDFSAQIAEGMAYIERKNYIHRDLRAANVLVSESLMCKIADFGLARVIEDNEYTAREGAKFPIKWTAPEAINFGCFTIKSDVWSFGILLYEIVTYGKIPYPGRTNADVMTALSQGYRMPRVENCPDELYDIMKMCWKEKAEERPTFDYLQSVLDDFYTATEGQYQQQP
UniProt O43318, sequence (whole entry, looked up): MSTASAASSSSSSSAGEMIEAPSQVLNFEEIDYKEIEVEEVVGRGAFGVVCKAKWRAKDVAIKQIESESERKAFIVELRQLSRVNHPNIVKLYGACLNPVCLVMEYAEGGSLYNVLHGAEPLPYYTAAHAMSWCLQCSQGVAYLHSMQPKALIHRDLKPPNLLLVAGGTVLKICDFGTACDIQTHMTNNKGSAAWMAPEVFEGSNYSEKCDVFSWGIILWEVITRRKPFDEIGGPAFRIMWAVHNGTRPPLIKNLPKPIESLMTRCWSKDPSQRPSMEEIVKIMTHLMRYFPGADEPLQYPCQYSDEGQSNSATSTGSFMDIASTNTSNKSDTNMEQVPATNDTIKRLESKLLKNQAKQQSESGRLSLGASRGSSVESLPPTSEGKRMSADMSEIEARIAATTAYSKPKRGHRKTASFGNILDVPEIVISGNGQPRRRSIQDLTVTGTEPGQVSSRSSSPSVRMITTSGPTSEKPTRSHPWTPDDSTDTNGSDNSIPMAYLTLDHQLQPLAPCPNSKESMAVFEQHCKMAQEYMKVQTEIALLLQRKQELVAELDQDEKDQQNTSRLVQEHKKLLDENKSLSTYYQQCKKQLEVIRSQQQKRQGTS

| Structure (SMILES) | target or system | test | setting | endpoint | result |
| --- | --- | --- | --- | --- | --- |
| COc1ccc(NC(=O)Nc2cccc(-c3cn(Cc4ccc(Br)cc4)nn3)c2)cc1 | L02 | cell growth or viability, CCK-8 | 50 µM, 72 h | viability | 121% |
| O=c1[nH]c2sc3c(c2c(=O)n1O)CCCC3 | HFF | cell growth or viability, MTS | 10 µM, 7 days | viability | 68% |
| Cc1ccc(CCC(=O)Nc2nnc(S(N)(=O)=O)s2)cc1 | Vero | cell growth or viability, MTS | 392 µM, 24 h | viability | 95 to 100% |
| CNC(=O)c1cc(Oc2ccc(NC(=O)Nc3ccc(Cl)c(C(F)(F)F)c3)cc2)ccn1 | WISH | cell growth or viability, MTT | 50 µM, 24 h | viability | 27.1% |
| Cc1ccc(S(=O)(=O)NNc2ccc([N+](=O)[O-])cc2[N+](=O)[O-])cc1 | HEK293 | cell growth or viability, MTT | 7.8125 µg/mL | viability | 90.5% |
| COc1ccc(NC(=O)Nc2cccc(-c3cn(Cc4ccc(Cl)cc4)nn3)c2)cc1 | L02 | cell growth or viability, CCK-8 | 50 µM, 72 h | viability | 120% |
| COc1cccc2c1C(=O)c1c(O)c3c(c(O)c1C2=O)C[C@@](O)(C(=O)CO)C[C@@H]3O[C@H]1C[C@H](N)[C@H](O)[C@H](C)O1 | SW480 | cell growth or viability, MTT | 50 µg/mL | viability | 24.5% |
| COC(=O)COc1c(Cc2cc(C(C)(C)CC(C)(C)C)cc(-n3nc4ccccc4n3)c2OCC(=O)OC)cc(C(C)(C)CC(C)(C)C)cc1-n1nc2ccccc2n1 | HeLa | cell growth or viability, MTT | 10 µM, 24 h | viability | 44.9% |
| O=c1[nH]c2sccc2c(=O)n1O | HFF | cell growth or viability, MTS | 10 µM, 7 days | viability | 103% |
| COc1ccc(NC(=O)Nc2ccc(-c3cn(Cc4ccc(Cl)cc4)nn3)cc2)cc1 | L02 | cell growth or viability, CCK-8 | 50 µM, 72 h | viability | 106% |
| Cn1cnc2c1c(=O)n(CC(=O)Nc1c(Cl)cccc1Cl)c(=O)n2C | Vero | cell growth or viability, MTT | 31.25 µg/mL | viability | 99.7% |
| CN1CCN(c2cnc3c(cc(C(=O)NCc4ccc(Cl)cc4)c(=O)n3CC(=O)N3CC(C)(F)C3)n2)C1=O | MRC5 | cell growth or viability, CCK-8 | 40 µM | viability | 90% |
| COc1cccc(NC(=O)Nc2ccc(Oc3nc4ccccc4n4cnnc34)cc2)c1 | WISH | cell growth or viability, MTT | 100 µM, 24 h | viability | 47.3% |
| O=C1c2ccccc2C(c2ccccc2F)C(=O)N1O (centres unmarked) | HFF | cell growth or viability, MTS | 10 µM, 7 days | viability | 87% |
| Nc1ccn([C@@H]2O[C@H](CO)[C@@H](O)C2(F)F)c(=O)n1 | MDA-MB-231 | cell growth or viability, MTT | 10 µg/mL, 48 h | viability | 34.4% |
| CCNc1nc(Nc2ccc(F)c(Cl)c2)c2ccccc2n1 | Vero | cell growth or viability, MTT | 62.5 µg/mL | viability | 99.8% |
| CNc1ncc2c(/C=C/C(=O)N3CCC(OC)CC3)nn(Cc3cccc(C(F)(F)F)c3)c2n1 | Tyrosine-protein kinase Lyn (LYN, Homo sapiens, UniProt P07948) | enzyme activity, inhibitor, radiometric | 1 µM | remaining activity | 81% |
| Cc1sc2[nH]c(=O)n(O)c(=O)c2c1C | HFF | cell growth or viability, MTS | 10 µM, 7 days | viability | 77% |

| Structure (SMILES) | target or system | test | setting | endpoint | result |
| --- | --- | --- | --- | --- | --- |
| COc1ccc(NC(=O)Nc2cccc(-c3cn(Cc4ccccc4C)nn3)c2)cc1 | L02 | cell growth or viability, CCK-8 | 50 µM, 72 h | viability | 114% |
| CC1(F)CN(C(=O)Cn2c(=O)c(C(=O)NCc3ccc(Cl)cc3)cc3nccnc32)C1 | MRC5 | cell growth or viability, CCK-8 | 40 µM | viability | 100% |
| COc1cc(/C=C/C(=O)C(=Cc2ccccc2)C(=O)/C=C/c2ccc(O)c(OC)c2)ccc1O | WRL68 | cell growth or viability, MTT | 0.4 µg/mL, 48 h | viability | 12.1% |
| O=c1[nH]c2ccsc2c(=O)n1O | HFF | cell growth or viability, MTS | 10 µM, 7 days | viability | 117% |
| CC1(C)CN(C(=O)Cn2c(=O)c(C(=O)NCc3ccc(Cl)cc3)cc3nccnc32)C1 | MRC5 | cell growth or viability, CCK-8 | 40 µM | viability | 95% |
| CC(C)n1ncc2c(C(=O)NCC3(C)CNC3)cc(C3CC3)nc21 | HeLa | cell growth or viability, neutral red | 9.2 µM | viability | 97.3% |
| COc1ccc(NC(=O)Nc2cccc(-c3cn(Cc4ccc(C)cc4)nn3)c2)cc1 | L02 | cell growth or viability, CCK-8 | 50 µM, 72 h | viability | 121% |
| Cc1c(C)c2c(c(C)c1O)CCC(C)(COc1ccc(CC3SC(=O)NC3=O)cc1)O2 (centres unmarked) | THLE-2 | cell growth or viability, MTT | 100 µM, 96 h | viability | 5.9% |
| CCN1CCc2c(sc3[nH]c(=O)n(O)c(=O)c23)C1 | HFF | cell growth or viability, MTS | 10 µM, 7 days | viability | 106% |
| O=S(=O)(NNc1nnc(Cl)c2ccccc12)c1ccc(F)cc1 | Vero | cell growth or viability, MTT | 1000 µg/mL | viability | 2.36% |
| CC1(F)CN(C(=O)Cn2c(=O)c(C(=O)NCc3ccc(Cl)cc3)cc3nc(N4CCN(CC(=O)O)C4=O)cnc32)C1 | MRC5 | cell growth or viability, CCK-8 | 40 µM | viability | 99% |
| COc1cc(-c2cncc3c2CN(C)Cc2cc(N4CCNCC4)ccc2-3)cc(OC)c1OC | Mitogen-activated protein kinase kinase kinase 7 (MAP3K7, Homo sapiens, UniProt O43318) | enzyme activity, inhibitor | 1 µM | remaining activity | 95% |
| Cc1ccc(S(=O)(=O)[N](Nc2ccc([N+](=O)[O-])cc2[N+](=O)[O-])[Sn]([Cl])[Cl])cc1 | HEK293 | cell growth or viability, MTT | 3.91 µg/mL | viability | 93.3% |
| O=C1c2ccccc2C(c2ccccc2)C(=O)N1O (centres unmarked) | HFF | cell growth or viability, MTS | 10 µM, 7 days | viability | 98% |
| COc1cc(/C=C2\CC/C(=C\c3ccc(O)c(OC)c3)C2=O)ccc1O | WRL68 | cell growth or viability, MTT | 25 µg/mL, 48 h | viability | 13.8% |
| O=c1[nH]c2scc(-c3ccc(Cl)cc3)c2c(=O)n1O | HFF | cell growth or viability, MTS | 10 µM, 7 days | viability | 90% |
| COc1cc(/C=C/C(=O)C(=Cc2ccc(O)cc2)C(=O)/C=C/c2ccc(O)c(OC)c2)ccc1O | WRL68 | cell growth or viability, MTT | 6.2 µg/mL, 48 h | viability | 81.9% |

For quick reference, copied from above:
| Structure (SMILES) | target or system | test | setting | endpoint | result |
| --- | --- | --- | --- | --- | --- |
| COc1cc(/C=C2\CC/C(=C\c3ccc(O)c(OC)c3)C2=O)ccc1O | WRL68 | cell growth or viability, MTT | 25 µg/mL, 48 h | viability | 13.8% |
| O=c1[nH]c2scc(-c3ccc(Cl)cc3)c2c(=O)n1O | HFF | cell growth or viability, MTS | 10 µM, 7 days | viability | 90% |
| COc1cc(/C=C/C(=O)C(=Cc2ccc(O)cc2)C(=O)/C=C/c2ccc(O)c(OC)c2)ccc1O | WRL68 | cell growth or viability, MTT | 6.2 µg/mL, 48 h | viability | 81.9% |
